Measurements pooled from the literature.
A part holds a random share of what one study measured.

Block 1 — method: protein-binding microarray; form: double-stranded DNA, one strand shown; matrix: in vitro; tested at: 940 nM top; setting: 60-bp whole probe; together with: salmon DNA 0.4 mg/ml; reference: random background probes; direction: higher = stronger binding
Target: Interferon regulatory factor 5, full length, phosphomimetic (IRF5, Homo sapiens, UniProt Q13568-2, residues 1-514, S451D/S453D/S456D/S462D)
Oligonucleotide | fitted relative affinity
GCCTAGCACGACAATATCGGGACTGGAGACGTGCTAGTCTTGATTCGCTTGACGCTGCTG | -0.153 z-score
GCCTAGCACGACGGTTTCTGTTTCGGGACGTGCTAGGTCTTGATTCGCTTGACGCTGCTG | 7.14 z-score
GCCTAGCACGACGAGATCAGTTTCGAGACGTGCTAGGTCTTGATTCGCTTGACGCTGCTG | 4.78 z-score

Block 2 — method: RNA Bind-n-Seq; form: RNA; matrix: in vitro; tested at: 365 nM; reference: no-protein control; direction: higher = stronger binding
Target: RNA binding protein fox-1 homolog 2, RRM domain, GST-SBP tag (RBFOX2, Homo sapiens, UniProt O43251-10, residues 100-194)
Setting: natural RNA segment, single round, ends assumed
Constant ends, left off below: GGGAGUUCUACAGUCCGACGAUC … UGGAAUUCUCGGGUGCCAA
Oligonucleotide | RBNS enrichment (R)
UACCUGCUUCUGACUUUAAGCAAAAGGAAAGAAAACUACCUUUUUAUAUAAUGCACAACUGUUGAUGACUGGCUGUAUAGUUUUUAGUCUCUGUAGCUAAUUUAAUUUGC | 0.408
CUAUUCAGGCCCACUGGGAGUUAGGAAGUAUAAGUAAGCCAAGAGAAGUCAGCCCCUGCCCAGAAGAUCUGAAACUAAUAGUAGGAGUUUCCCCAGAAGUCAUUUUCAGC | 0.581
UCUUUCAUAGAUAGCCAUUACAUUUCUUUAAAUUUUUCAAUGCCGAUGUGUAUUCUAUAAGAGAAUAGCUUCCUAAUUAAGUCGGUUUAGAAGAAGGUGCUGGUGUCACA | 0.463
AAAUUAACUGCAUAUAAAAUGGUUCACUUUUAUAUAGUCACAUGUAAUGGGCCUGAAAAAGUUUCUUCUUUGAUUAUGUAGUUACUCUAGAUACAUUCUUUUAGGGAAGU | 0.389
UUUUGUUUUGGUGGUUGUUUUGGAAAAACAGUUUAUAAACUGAUUUUUGUAGUUUUGGUAUUUAAAGCAAAAAAACGAAAAACAAAAAACAAAAACAAACCUUUUGGUAA | 0.477
UGUGACUUUUUAGCCAGUGACUUUUUCUGAGCUUUUCAUGGAAGUGGCAGUGAAAAAUAUGUUGAGUGUUCAUUUUAGUGACUGUAAUUAAUAUCUUGCUGGAUUAAUGU | 0.534

Block 3 — method: universal PBM; form: double-stranded DNA, one strand shown; matrix: in vitro; tested at: not given; direction: higher = stronger binding
Target: Sal-like protein 4, full length isoform B (SALL4, Homo sapiens, UniProt Q9UJQ4-2, residues 1-616)
Setting: 8-mer, flanks averaged, mean of replicates
Residues (chain): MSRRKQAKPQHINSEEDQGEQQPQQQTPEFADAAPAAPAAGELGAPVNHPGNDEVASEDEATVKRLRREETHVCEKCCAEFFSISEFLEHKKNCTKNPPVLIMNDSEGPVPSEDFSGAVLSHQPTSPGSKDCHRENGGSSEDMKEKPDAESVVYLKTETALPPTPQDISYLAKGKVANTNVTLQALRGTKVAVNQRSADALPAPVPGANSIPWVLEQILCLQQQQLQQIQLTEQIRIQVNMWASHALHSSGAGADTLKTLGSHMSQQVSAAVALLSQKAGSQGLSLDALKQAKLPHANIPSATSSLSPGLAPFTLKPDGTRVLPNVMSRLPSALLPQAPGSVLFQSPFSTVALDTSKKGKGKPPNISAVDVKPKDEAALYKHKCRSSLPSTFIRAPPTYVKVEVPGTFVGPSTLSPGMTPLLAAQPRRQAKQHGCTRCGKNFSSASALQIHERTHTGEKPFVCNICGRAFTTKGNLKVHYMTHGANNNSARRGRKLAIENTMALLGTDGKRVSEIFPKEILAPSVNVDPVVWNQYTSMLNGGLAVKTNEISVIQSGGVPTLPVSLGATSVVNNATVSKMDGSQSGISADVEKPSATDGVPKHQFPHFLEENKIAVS
Oligonucleotide | E-score
CAATGGGC | -0.175
ACAGCCCC | -0.274
ATGAATTG | 0.238
AGCCATAC | -0.0914
AAATCACC | 0.0809
ACTATCCA | 0.0931

Other studies, line by line
Molecule | target | assay | system | setting | how to read | quantity | value
PhoQ, residues 284 288 289 292 302 303 NSMLDC | PhoP, residues 12 14 15 18 19 TPLRH (Escherichia coli, UniProt P23836) | Sort-seq, refers to: YFP reporter | E. coli | PhoQ-PhoP variant library, together with: 10 µM Mg2+ | reference: high Mg2+ state, higher = stronger signaling | fold induction | 1.29

For quick reference, copied from above (block 3):
Oligonucleotide | E-score
ACAGCCCC | -0.274
ATGAATTG | 0.238
